Measurements of several laboratories.
Lines come from different studies, so protocols differ. Values joined by “and” are separate records of one study, mostly repeats; a detail may differ. Numbers after ± are the reported error.
Chain of UniProt P05177 (whole entry, looked up): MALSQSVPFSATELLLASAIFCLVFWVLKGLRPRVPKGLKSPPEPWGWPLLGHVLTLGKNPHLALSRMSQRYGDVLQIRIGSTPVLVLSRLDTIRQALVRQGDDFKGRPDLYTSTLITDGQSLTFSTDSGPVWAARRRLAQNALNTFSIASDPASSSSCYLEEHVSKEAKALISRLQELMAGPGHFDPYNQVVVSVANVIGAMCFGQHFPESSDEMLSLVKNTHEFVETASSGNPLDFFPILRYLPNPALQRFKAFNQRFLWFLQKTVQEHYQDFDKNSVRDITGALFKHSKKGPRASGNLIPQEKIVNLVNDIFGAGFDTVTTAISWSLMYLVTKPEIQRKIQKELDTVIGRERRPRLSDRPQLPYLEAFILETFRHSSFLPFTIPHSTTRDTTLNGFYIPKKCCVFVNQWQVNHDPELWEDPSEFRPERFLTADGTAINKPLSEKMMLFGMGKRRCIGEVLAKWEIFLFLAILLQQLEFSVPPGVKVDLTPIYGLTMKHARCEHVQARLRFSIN

The MRT(0-t) of `COc1ccc(-n2cc(C(=O)N3C[C@]4(OC(=O)c5ccccc5NC(C)=O)CC[C@H](OC)[C@@]56[C@@H]4C[C@@H]([C@@H]35)[C@@]3(O)C[C@H](OC)[C@H]4C[C@@H]6[C@]3(O)[C@H]4OC)nn2)cc1` is reported as 16.9 min (rat Sprague-Dawley, plasma; intravenous, 2 mg/kg).
With `O=C1NC2(CC2)COc2ncc(F)cc2[C@H]2COCCN2c2ccn3ncc1c3n2` the epididymis weight was 1.01 ± 0.088 g (Sprague-Dawley rat, male, epididymides; oral, 20 mg/kg/day, end of treatment, 4-week repeated-dose toxicity).
`Cc1nc2cccc(OCC(C)(C)C(=O)NC(C)C)c2c(N)c1C(=O)[O-].[Na+]` — result for “revertant colonies per plate”: 13 ± 3 (Salmonella typhimurium; TA1537; 0.051 mg per plate, without S9, plate incorporation).
The LC50 of `O=C(/C=C/c1ccc(Br)cc1)c1ccc(NS(=O)(=O)c2ccc(C(F)(F)F)cc2)cc1` is reported as 9.12 µM (Danio rerio; wild type, embryos; immersion, up to 120 hpf, exposure from 5 hpf).
`Cc1ccc(NS(=O)(=O)c2c(C(=O)N3CCCCCC3)c(C)n(C)c2C)c(Cl)c1` gave a viability of 102% and 97% (HaCaT; 11.11 µM, 60 h).
Under “log tautomerization constant”, `O=C1CC[C@H]2[C@H]3Cc4ccc(O)c5c4[C@@]2(CCN3CCc2ccccc2)[C@H]1O5` is recorded as 2.
`C[C@H]1[C@@H](OCc2cn(-c3cc4ccc(O)cc4oc3=O)nn2)O[C@@H]2O[C@@]3(C)CC[C@H]4[C@H](C)CC[C@@H]1[C@@]24OO3` has an uptake inhibition of 71.5% (Plasmodium berghei; flow cytometry, item: compound uptake in uninfected red cells; uninfected mouse red blood cells; 3 µM, 1 h, with: dihydroartemisinin added 30 min before).
The log K of `COc1ccc2c3c1O[C@H]1[C@@H](O)C=C[C@H]4[C@@H](C2)N(CCc2ccccc2)CC[C@@]341` is reported as 8.04 (potentiometric titration; methanol/water, extrapolated to water).
`NC[C@]1(CC(=O)O)CC[C@H]([18F])CC1` has an SUV of 0.45 (PET; rhesus monkey, brain; intravenous, 9 min, baseline scan, after decrease).
For `CN1CC[C@]23c4c5ccc(O)c4O[C@H]2[C@H](O)CC[C@@]3(O)[C@H]1C5`, “log k protonation constant” read 9.29 (phenolate site).
The half-life of `Cc1cc(-c2ccc3ccccc3c2)nnc1NCCN1CCN(C)CC1` is reported as over 60 min (Cytochrome P450 1A2 (CYP1A2, Homo sapiens, UniProt P05177); substrate; recombinant enzyme; 100 nM).
